# Experimental data pooled from the literature.
# Lines come from different studies, so protocols differ. Several values in a cell are separate wells, animals, samples, runs or records. ± gives the spread as reported.
# CHRM5: Muscarinic acetylcholine receptor M5 (CHRM5, Homo sapiens, UniProt P08912)
# Chain of UniProt P08912 (whole entry, looked up): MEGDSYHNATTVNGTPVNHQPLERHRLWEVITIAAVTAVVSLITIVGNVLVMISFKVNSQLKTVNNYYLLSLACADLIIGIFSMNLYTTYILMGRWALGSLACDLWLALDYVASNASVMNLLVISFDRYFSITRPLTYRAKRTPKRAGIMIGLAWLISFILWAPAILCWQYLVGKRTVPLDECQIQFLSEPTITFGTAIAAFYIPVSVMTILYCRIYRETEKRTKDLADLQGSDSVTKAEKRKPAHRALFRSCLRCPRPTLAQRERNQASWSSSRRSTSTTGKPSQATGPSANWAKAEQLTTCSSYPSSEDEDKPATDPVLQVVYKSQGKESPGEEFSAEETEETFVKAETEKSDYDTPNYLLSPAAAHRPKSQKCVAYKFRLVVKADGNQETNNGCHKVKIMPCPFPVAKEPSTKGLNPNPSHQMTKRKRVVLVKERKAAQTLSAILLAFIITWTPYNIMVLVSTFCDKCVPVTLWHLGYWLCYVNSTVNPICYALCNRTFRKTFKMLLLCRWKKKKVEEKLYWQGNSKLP
# CASP3: Caspase-3 (CASP3, Homo sapiens, UniProt P42574)
# Chain of UniProt P42574 (whole entry, looked up): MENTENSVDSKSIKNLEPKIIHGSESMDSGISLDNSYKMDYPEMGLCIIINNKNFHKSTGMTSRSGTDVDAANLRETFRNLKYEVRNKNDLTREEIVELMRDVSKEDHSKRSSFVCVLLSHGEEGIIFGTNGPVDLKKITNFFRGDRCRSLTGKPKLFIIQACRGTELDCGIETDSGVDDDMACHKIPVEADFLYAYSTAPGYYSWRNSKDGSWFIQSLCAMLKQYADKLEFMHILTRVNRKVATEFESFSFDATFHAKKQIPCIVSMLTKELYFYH
# SLC10A2: Ileal sodium/bile acid cotransporter (SLC10A2, Homo sapiens, UniProt Q12908)
# Chain of UniProt Q12908 (whole entry, looked up): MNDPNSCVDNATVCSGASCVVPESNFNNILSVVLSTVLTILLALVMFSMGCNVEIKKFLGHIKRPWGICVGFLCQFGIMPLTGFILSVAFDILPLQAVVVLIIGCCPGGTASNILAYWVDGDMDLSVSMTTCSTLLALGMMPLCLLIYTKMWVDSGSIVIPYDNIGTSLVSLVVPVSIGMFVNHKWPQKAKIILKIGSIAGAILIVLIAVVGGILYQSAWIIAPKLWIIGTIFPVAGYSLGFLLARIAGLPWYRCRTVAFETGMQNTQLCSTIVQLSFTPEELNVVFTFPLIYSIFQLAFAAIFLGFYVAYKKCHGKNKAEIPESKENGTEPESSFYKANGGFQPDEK
# Hypoxanthine-guanine phosphoribosyltransferase: Hypoxanthine-guanine phosphoribosyltransferase (Trypanosoma cruzi, UniProt Q4DGA3)
# GBA3: Cytosolic beta-glucosidase (GBA3, Homo sapiens, UniProt Q9H227)
# Chain of UniProt Q9H227 (whole entry, looked up): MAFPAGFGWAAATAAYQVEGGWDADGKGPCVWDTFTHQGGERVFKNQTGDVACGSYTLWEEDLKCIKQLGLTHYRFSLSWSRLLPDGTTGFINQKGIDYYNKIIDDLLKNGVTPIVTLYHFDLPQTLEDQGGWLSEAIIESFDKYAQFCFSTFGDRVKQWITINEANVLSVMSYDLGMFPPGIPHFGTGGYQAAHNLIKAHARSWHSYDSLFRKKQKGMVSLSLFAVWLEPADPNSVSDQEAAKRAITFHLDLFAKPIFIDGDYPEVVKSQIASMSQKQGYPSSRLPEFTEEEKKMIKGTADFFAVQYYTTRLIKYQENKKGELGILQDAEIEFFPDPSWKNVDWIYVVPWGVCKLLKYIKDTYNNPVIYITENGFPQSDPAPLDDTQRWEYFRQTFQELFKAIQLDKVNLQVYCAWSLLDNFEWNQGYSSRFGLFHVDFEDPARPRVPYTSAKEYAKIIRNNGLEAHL
# Drd2: D(2) dopamine receptor (Drd2, Rattus norvegicus, UniProt P61169)
# Chain of UniProt P61169 (whole entry, looked up): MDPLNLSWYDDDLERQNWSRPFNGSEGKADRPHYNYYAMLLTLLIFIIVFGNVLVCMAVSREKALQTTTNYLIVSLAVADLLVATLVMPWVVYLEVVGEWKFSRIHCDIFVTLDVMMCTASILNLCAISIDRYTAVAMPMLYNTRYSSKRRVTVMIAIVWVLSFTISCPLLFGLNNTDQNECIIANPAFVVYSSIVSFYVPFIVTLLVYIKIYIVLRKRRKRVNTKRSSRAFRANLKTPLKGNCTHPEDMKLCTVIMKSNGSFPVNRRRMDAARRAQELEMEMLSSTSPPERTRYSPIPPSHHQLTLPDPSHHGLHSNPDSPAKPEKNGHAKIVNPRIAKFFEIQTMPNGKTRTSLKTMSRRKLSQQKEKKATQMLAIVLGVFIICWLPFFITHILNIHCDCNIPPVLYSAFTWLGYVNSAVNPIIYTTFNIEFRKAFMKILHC
# Sigmar1: Sigma non-opioid intracellular receptor 1 (Sigmar1, Rattus norvegicus, UniProt Q9R0C9)
# Chain of UniProt Q9R0C9 (whole entry, looked up): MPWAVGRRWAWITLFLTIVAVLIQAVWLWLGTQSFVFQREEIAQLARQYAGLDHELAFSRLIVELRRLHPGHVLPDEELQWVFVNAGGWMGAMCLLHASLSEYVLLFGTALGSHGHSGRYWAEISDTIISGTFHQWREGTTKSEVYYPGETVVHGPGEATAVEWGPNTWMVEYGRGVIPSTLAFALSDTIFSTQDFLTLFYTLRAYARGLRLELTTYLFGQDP
# CHRM1: Muscarinic acetylcholine receptor M1 (CHRM1, Homo sapiens, UniProt P11229)
# Chain of UniProt P11229 (whole entry, looked up): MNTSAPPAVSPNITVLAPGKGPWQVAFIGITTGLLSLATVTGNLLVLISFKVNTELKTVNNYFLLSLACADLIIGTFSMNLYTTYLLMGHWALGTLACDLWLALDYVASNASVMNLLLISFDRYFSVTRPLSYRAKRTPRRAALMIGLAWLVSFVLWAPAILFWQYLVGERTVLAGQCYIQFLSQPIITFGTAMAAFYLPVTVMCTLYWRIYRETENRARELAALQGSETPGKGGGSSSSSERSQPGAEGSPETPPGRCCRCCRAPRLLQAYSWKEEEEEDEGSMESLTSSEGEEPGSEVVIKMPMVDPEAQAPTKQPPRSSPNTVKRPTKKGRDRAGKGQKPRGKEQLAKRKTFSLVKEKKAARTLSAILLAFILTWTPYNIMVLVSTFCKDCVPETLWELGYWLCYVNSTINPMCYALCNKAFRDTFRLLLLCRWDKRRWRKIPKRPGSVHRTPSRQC
# Chain of UniProt P16442 (whole entry, unmodified, looked up): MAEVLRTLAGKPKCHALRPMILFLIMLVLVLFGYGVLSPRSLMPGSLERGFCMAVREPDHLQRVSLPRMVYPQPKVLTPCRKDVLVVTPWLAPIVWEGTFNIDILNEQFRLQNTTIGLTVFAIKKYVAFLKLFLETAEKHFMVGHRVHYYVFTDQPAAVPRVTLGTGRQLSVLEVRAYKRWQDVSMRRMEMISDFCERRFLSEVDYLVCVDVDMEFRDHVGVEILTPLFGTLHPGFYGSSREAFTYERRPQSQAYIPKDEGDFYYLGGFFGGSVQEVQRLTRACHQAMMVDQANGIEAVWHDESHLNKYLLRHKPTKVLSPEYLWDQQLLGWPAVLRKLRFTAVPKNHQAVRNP
# Chain of UniProt P20309 (whole entry, looked up): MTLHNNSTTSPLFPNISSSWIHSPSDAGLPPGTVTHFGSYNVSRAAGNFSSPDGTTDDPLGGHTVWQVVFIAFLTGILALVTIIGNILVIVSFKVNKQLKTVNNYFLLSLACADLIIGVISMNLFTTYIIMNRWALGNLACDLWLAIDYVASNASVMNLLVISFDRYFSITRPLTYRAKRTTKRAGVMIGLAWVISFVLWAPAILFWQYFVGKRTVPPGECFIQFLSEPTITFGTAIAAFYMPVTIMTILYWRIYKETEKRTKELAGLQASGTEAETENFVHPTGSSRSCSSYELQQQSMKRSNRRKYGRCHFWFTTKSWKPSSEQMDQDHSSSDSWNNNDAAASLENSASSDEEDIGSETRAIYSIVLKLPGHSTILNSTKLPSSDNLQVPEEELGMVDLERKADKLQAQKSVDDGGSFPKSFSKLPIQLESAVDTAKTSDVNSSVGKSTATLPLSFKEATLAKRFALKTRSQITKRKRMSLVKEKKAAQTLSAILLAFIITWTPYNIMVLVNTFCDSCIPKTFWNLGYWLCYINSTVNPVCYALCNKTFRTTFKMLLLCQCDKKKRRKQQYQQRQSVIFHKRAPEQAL
# Chain of UniProt P27338 (whole entry, looked up): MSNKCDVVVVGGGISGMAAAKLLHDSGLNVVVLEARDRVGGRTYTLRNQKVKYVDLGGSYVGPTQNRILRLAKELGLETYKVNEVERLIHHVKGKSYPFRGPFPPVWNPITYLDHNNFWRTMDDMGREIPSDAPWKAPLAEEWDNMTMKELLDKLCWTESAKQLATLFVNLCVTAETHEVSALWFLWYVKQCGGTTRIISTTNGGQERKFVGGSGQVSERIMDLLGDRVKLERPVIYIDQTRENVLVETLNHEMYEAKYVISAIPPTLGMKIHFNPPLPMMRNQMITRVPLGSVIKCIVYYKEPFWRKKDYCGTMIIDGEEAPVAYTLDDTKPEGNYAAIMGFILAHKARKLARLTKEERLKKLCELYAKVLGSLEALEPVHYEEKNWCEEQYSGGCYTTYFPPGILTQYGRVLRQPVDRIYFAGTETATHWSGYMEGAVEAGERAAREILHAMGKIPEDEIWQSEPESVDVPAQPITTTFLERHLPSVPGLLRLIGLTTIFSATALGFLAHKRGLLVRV
# Chain of UniProt P05364 (whole entry, looked up): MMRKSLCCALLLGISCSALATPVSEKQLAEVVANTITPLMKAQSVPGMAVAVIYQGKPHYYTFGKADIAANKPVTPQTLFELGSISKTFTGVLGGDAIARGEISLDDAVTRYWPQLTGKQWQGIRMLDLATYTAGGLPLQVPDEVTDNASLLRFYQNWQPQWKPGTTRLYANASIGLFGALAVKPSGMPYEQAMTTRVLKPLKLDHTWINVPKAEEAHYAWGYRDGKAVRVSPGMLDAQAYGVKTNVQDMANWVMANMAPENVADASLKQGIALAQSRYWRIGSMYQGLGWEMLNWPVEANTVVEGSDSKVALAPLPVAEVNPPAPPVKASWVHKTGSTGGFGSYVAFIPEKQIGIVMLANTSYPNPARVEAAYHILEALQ
# Chain of UniProt Q9QXU1 (whole entry, looked up): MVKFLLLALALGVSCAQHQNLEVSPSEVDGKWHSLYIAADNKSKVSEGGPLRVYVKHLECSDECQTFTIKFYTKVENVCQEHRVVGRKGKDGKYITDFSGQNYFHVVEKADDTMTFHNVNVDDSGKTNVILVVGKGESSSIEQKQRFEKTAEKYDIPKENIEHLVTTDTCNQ
target,test,system,setting,Ki,SMILES
CHRM5,"ligand displacement, radioligand",,,0.132 µM,CCC(=O)NC1CN(CCCCC2CCN(CC(=O)N3c4ccccc4NC(=O)c4ccccc43)CC2)CCN(CC(=O)N2CCC(N3CCC(n4c(=O)[nH]c5ccccc54)CC3)CC2)C1 (stereo not drawn)
"Beta-2 adrenergic receptor (ADRB2, Homo sapiens, UniProt P07550)","ligand displacement, radioligand",,cell membranes,2 to 25.1 µM,NCC1Cc2cccc(-c3ccc(S(N)(=O)=O)cc3F)c2O1 (stereo not drawn)
CASP3,"enzyme activity, inhibitor, fluorescence",,pH 7,0.0457 µM,CC(=O)N[C@@H](Cc1c[nH]c2ccccc12)C(=O)N[C@@H](CC(=O)O)C(=O)N[C@@H](CCCNC(=N)N)C(=O)N[C@@H](C)C(=O)N[C@H](C=O)CC(=O)O
SLC10A2,"taurocholate uptake, inhibitor",ASBT-MDCK,"10 min, with: taurocholate 2.5 µM",< 10 µM and 5.8 µM,CC(CCC(=O)NC(CCC(=O)Nc1cccnc1F)C(=O)O)C1CCC2C3C(O)CC4CC(O)CCC4(C)C3CCC12C (stereo not drawn)
CASP3,"enzyme activity, inhibitor, fluorescence",,pH 7,3.39 µM,CC(=O)N[C@H](C(=O)NCC(=O)N[C@@H](CCCCN)C(=O)N[C@H](C=O)CC(=O)O)[C@@H](C)O
CHRM5,"ligand displacement, radioligand",,cell membranes,6.61 µM,CCCCCCOc1ccc(C(=O)OCCN2CC=CCC2)cc1
CHRM5,"ligand displacement, radioligand",,,0.024 µM,CCC(=O)NCc1cc(C(=O)NCCN2CCC(OC(=O)C(c3ccccc3)c3ccccc3)CC2)cc(C(=O)NCCN2CCN(CCCCC3CCN(CC(=O)N4c5ccccc5NC(=O)c5ccccc54)CC3)CC2)c1
"Apoptosis regulator Bcl-2 (BCL2, Homo sapiens, UniProt P10415)","ligand displacement, FP",,,93 µM,Cc1cccc2c1O[C@@H](c1nc(C(=O)O)cs1)CN2Cc1ccccc1
CASP3,"enzyme activity, inhibitor, fluorescence",,pH 7,> 100 µM,CC(=O)N[C@H](C(=O)N[C@@H](CCCN)C(=O)N[C@H](C=O)CC(=O)O)C(C)C
"Melanocyte-stimulating hormone receptor (MC1R, Homo sapiens, UniProt Q01726)",,HEK-293T transfected,"2 h, 37 °C, with: Eu-NDP-MSH",> 5 µM,CC[C@H](C)[C@H](NC(=O)[C@H](CCC(N)=O)NC(=O)[C@H](CCC(=O)O)NC(=O)[C@H](CCC(=O)O)NC(=O)[C@H](CCCCN)NC(=O)[C@@H]1CCCN1C(=O)[C@H](CC(C)C)NC(=O)[C@H](CO)NC(=O)[C@H](CO)NC(=O)[C@@H](N)CC(C)C)C(=O)NCC(=O)N[C@@H](CCCCN)C(=O)N[C@@H](CO)C(=O)N[C@@H](CO)C(=O)N[C@H](C(=O)N[C@@H](CCCNC(=N)N)C(=O)NCC(=O)N[C@@H](CCCNC(=N)N)C(=O)N[C@@H](CCCCN)C(=O)N[C@@H](CO)C(=O)N[C@@H](CO)C(=O)N[C@@H](CCCNC(=N)N)C(=O)N[C@@H](CCCNC(=N)N)C(=O)N[C@@H](CCCCN)C(=O)N[C@@H](CCCCN)C(N)=O)[C@@H](C)O
CHRM5,"ligand displacement, radioligand",,,0.00427 µM,CCC(=O)NCc1cc(C(=O)NCCCC(=O)NCCCCCOc2nsnc2C2=CCCN(C)C2)cc(C(=O)NCCN2CCN(CCCCC3CCN(CC(=O)N4c5ccccc5NC(=O)c5ccccc54)CC3)CC2)c1
"Signal transducer and activator of transcription 5A, SH2 (Homo sapiens, UniProt P42229)","ligand displacement, FP",,,40 µM,O=C(COc1ccc2ccccc2c1)NCc1ccc(OP(=O)(O)O)cc1
Hypoxanthine-guanine phosphoribosyltransferase,,,,0.48 ± 0.03 µM,O=c1[nH]cnc2c(CN[C@@H](CO)CCP(=O)(O)O)c[nH]c12
"Beta-secretase 1 (BACE1, Homo sapiens, UniProt P56817)",,,,0.731 ± 0.065 µM,Cc1cc(C(=O)N[C@@H](Cc2ccccc2)[C@H](O)CN[C@H](C(=O)NCC(C)C)[C@H](C)O)cc(C(=O)N[C@H](C)c2ccccc2)c1
SLC10A2,"transporter uptake, inhibitor, radiometric",,,15.6 µM,C[C@H](CCC(=O)NCC(=O)O)[C@H]1CC[C@H]2[C@@H]3[C@H](OC(=O)c4cccnc4)C[C@H]4C[C@H](O)CC[C@]4(C)[C@H]3CC[C@]12C
GBA3,"enzyme activity, inhibitor",,,145 µM,OC[C@@H]1[C@@H](O)[C@H](O)[C@@H](O)CN1CCCCCOCC1CCCO1 (stereo partly drawn)
SLC10A2,"taurocholate uptake, inhibitor",ASBT-MDCK,"10 min, with: taurocholate 2.5 µM",7.92 µM,CC(CCC(=O)NC(CCC(=O)Nc1ccc(Cl)nc1)C(=O)O)C1CCC2C3C(O)CC4CC(O)CCC4(C)C3CCC12C (stereo not drawn)
Drd2,"cell-free assay, radioligand",,,0.073 µM,COc1cc(CN2CCOCC2)ccc1OCCCN1CCN(c2cccc3sccc23)CC1
CASP3,"enzyme activity, inhibitor, fluorescence",,pH 7,0.00661 µM,CC(=O)N[C@@H](CC(=O)O)C(=O)N[C@H](C(=O)N1CCC[C@H]1C(=O)N[C@H](C=O)CC(=O)O)C(C)C
"Lysine-specific demethylase 2A (KDM2A, Homo sapiens, UniProt Q9Y2K7)","ligand displacement, FP",,,> 200 µM,CC1(C)CC(=O)C=C(Sc2nc3cc(Cl)ccc3s2)C1
"Beta-lactamase (Enterobacter cloacae, UniProt P05364)","enzyme activity, inhibitor",P99,"pH 7.50, 25 °C, with: cephalothin 0.2 mM substrate",0.62 ± 0.15 µM,CC1(C)SC(C(CCc2ccccc2)B(O)O)N[C@H]1C(=O)O (stereo partly drawn)
Drd2,"cell-free assay, radioligand",,,0.25 µM,Cc1cc(OCCCN2CCN(c3cccc4sccc34)CC2)ccc1CN1CCCCC1
"Tyrosine-protein phosphatase non-receptor type 1 (PTPN1, Homo sapiens, UniProt P18031)","enzyme activity, inhibitor",,,1.61 µM,CC(C)=CCc1c(O)cc(O)c2c1O[C@H](c1ccccc1)[C@@H](O)C2=O
CASP3,"enzyme activity, inhibitor, fluorescence",,pH 7,> 100 µM,CC(=O)N[C@H](C(=O)N[C@@H](CCN)C(=O)N[C@H](C=O)CC(=O)O)C(C)C
CHRM5,"ligand displacement, radioligand",,,0.00339 µM,O=C1Nc2ccccc2N(C(=O)CN2CCC(CCCCN3CCN(CCOC(=O)C4c5ccccc5Oc5ccccc54)CC3)CC2)c2ccccc21
Hypoxanthine-guanine phosphoribosyltransferase,"enzyme activity, inhibitor",,"pH 8.3, 37 °C, with: PRPP varied and guanine fixed",5 ± 1 µM,Nc1nc2c(ncn2C2OC(COP(=O)(O)O)C(O)C2O)c(=O)[nH]1 (stereo not drawn)
"Male-specific submandibular salivary gland protein (MSP, Mesocricetus auratus, UniProt Q9QXU1)","binding, fluorescence displacement",,with: 1-AMA 2 µM,~0.22 µM,COc1nccnc1CC(C)C
"Low molecular weight phosphotyrosine protein phosphatase, isoform A (ACP1, Homo sapiens, UniProt P24666)","enzyme activity, uncompetitive inhibitor",,"0.78 nM enzyme, with: OMFP",0.846 ± 0.0292 µM,CCN(CC)C(=O)c1ccc(-c2cc(NCCCN3CCCCC3)c3ccccc3n2)cc1
GBA3,"enzyme activity, inhibitor",,,116 µM,CC(OCCCCCN1C[C@H](O)[C@@H](O)[C@H](O)[C@H]1CO)C(C)(C)C (stereo partly drawn)
CHRM5,"ligand displacement, radioligand",,,0.1 µM,CCC(=O)NC1CN(CCCCC2CCN(CC(=O)N3c4ccccc4NC(=O)c4ccccc43)CC2)CCN(CCCOc2nsnc2C2=CCCN(C)C2)C1 (stereo not drawn)
"Amine oxidase [flavin-containing] B (MAOB, Homo sapiens, UniProt P27338)","enzyme activity, inhibitor",,,> 500 µM,COc1ccc(CCCN[C@@H]2CCC[C@H]2CN[C@@H]2CCC[C@H]2CNCCCCN[C@H]2CCC[C@@H]2CN)cc1
Sigmar1,binding,,,0.00641 ± 0.0018 µM,C/C(=N\OCCN1CCCCC1)c1cccc(C(F)(F)F)c1
"Muscarinic acetylcholine receptor M3 (CHRM3, Homo sapiens, UniProt P20309)","ligand displacement, radioligand",,,0.0166 µM,NCc1cc(C(=O)NCCN2CCN(CCCCC3CCN(CC(=O)N4c5ccccc5NC(=O)c5ccccc54)CC3)CC2)cc(C(=O)NCCN2CCN(CCCCC3CCN(CC(=O)N4c5ccccc5NC(=O)c5ccccc54)CC3)CC2)c1
"Adenosine receptor A1 (ADORA1, Homo sapiens, UniProt P30542)","ligand displacement, radioligand",,cell membranes,0.0031 µM,COc1cccc(-c2c(C#N)c(N)nc(SCc3ncc[nH]3)c2C#N)c1
"Bifunctional dihydrofolate reductase-thymidylate synthase, DHFR domain (Trypanosoma cruzi, UniProt Q27793)","enzyme activity, competitive inhibitor",,"with: dihydrofolate 60 µM, NADPH 100 µM",1.07 µM,CC1(C)NC(N)=Nc2nc3cc(Cl)c(Cl)cc3n21
"Prostate-specific antigen (Homo sapiens, UniProt P07288)","enzyme activity, inhibitor, fluorescence",,pH 7.8,> 500 µM,CC(C)C[C@@H](C=O)NC(=O)[C@H](Cc1ccc(Br)cc1)NC(=O)[C@H](CCCCN)NC(=O)[C@H](CO)NC(=O)[C@H](CO)NC(=O)OCc1ccccc1
CASP3,"enzyme activity, inhibitor, fluorescence",,pH 7,0.00302 µM,CC(=O)N[C@@H](Cc1ccccc1)C(=O)N[C@@H](CC(=O)O)C(=O)N[C@H](C(=O)N1CCC[C@H]1C(=O)N[C@H](C=O)CC(=O)O)C(C)C
CHRM1,"ligand displacement, radioligand",,,0.00158 µM,CN1CCC=C(c2nsnc2OCCCCCNC(=O)CCCNC(=O)c2cc(CN)cc(C(=O)NCCN3CCN(CCCCC4CCN(CC(=O)N5c6ccccc6NC(=O)c6ccccc65)CC4)CC3)c2)C1
Sigmar1,binding,,,0.0561 ± 0.00631 µM,FC(F)(F)c1ccc(C(=NOCCCN2CCCCC2)c2ccccc2)cc1 (mixture of isomers)
"Histo-blood group ABO system transferase (ABO, Homo sapiens, UniProt P16442, G268A/L266G)","N-acetylgalactosaminyltransferase activity, inhibitor, radiochemical",,"with: 2 µM UDP-GalNAc donor, 100 µM acceptor",0.52 µM,O=Cc1ccc(-c2cn([C@@H]3O[C@H](COP(=O)(O)OP(=O)(O)O[C@H]4O[C@H](CO)[C@H](O)[C@H](O)[C@H]4O)[C@@H](O)[C@H]3O)c(=O)[nH]c2=O)s1
CHRM1,"ligand displacement, radioligand",,,0.00302 µM,NCc1cc(C(=O)NCCN2CCN(CCCCC3CCN(CCCN4C(=O)CCc5ccccc54)CC3)CC2)cc(C(=O)NCCN2CCN(CCCCC3CCN(CC(=O)N4c5ccccc5NC(=O)c5ccccc54)CC3)CC2)c1
"Adenosine receptor A3 (ADORA3, Homo sapiens, UniProt P0DMS8)","ligand displacement, radioligand",,cell membranes,0.3 µM,Nc1ncnc2c1ncn2[C@@H]1O[C@H](C(=O)NC2COC2)[C@@H](O)[C@H]1O

# For quick reference, copied from above:
target,test,system,setting,Ki,SMILES
"Tyrosine-protein phosphatase non-receptor type 1 (PTPN1, Homo sapiens, UniProt P18031)","enzyme activity, inhibitor",,,1.61 µM,CC(C)=CCc1c(O)cc(O)c2c1O[C@H](c1ccccc1)[C@@H](O)C2=O
CASP3,"enzyme activity, inhibitor, fluorescence",,pH 7,> 100 µM,CC(=O)N[C@H](C(=O)N[C@@H](CCN)C(=O)N[C@H](C=O)CC(=O)O)C(C)C
CHRM5,"ligand displacement, radioligand",,,0.00339 µM,O=C1Nc2ccccc2N(C(=O)CN2CCC(CCCCN3CCN(CCOC(=O)C4c5ccccc5Oc5ccccc54)CC3)CC2)c2ccccc21
Hypoxanthine-guanine phosphoribosyltransferase,"enzyme activity, inhibitor",,"pH 8.3, 37 °C, with: PRPP varied and guanine fixed",5 ± 1 µM,Nc1nc2c(ncn2C2OC(COP(=O)(O)O)C(O)C2O)c(=O)[nH]1 (stereo not drawn)
"Male-specific submandibular salivary gland protein (MSP, Mesocricetus auratus, UniProt Q9QXU1)","binding, fluorescence displacement",,with: 1-AMA 2 µM,~0.22 µM,COc1nccnc1CC(C)C
"Low molecular weight phosphotyrosine protein phosphatase, isoform A (ACP1, Homo sapiens, UniProt P24666)","enzyme activity, uncompetitive inhibitor",,"0.78 nM enzyme, with: OMFP",0.846 ± 0.0292 µM,CCN(CC)C(=O)c1ccc(-c2cc(NCCCN3CCCCC3)c3ccccc3n2)cc1
GBA3,"enzyme activity, inhibitor",,,116 µM,CC(OCCCCCN1C[C@H](O)[C@@H](O)[C@H](O)[C@H]1CO)C(C)(C)C (stereo partly drawn)
